Published values pooled from the literature.
Numbered parts are unrelated; each lists some results of a single study.
Sequence of UniProt Q00526 (whole entry, looked up): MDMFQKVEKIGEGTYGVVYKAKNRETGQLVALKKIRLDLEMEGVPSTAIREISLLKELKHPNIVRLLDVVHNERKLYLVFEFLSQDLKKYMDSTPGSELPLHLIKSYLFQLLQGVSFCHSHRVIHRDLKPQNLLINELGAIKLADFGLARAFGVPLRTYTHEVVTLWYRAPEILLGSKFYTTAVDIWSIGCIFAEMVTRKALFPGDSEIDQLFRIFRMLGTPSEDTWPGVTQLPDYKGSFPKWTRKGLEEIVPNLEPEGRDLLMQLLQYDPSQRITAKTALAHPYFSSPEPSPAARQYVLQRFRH
Sequence of UniProt P48736 (whole entry, looked up): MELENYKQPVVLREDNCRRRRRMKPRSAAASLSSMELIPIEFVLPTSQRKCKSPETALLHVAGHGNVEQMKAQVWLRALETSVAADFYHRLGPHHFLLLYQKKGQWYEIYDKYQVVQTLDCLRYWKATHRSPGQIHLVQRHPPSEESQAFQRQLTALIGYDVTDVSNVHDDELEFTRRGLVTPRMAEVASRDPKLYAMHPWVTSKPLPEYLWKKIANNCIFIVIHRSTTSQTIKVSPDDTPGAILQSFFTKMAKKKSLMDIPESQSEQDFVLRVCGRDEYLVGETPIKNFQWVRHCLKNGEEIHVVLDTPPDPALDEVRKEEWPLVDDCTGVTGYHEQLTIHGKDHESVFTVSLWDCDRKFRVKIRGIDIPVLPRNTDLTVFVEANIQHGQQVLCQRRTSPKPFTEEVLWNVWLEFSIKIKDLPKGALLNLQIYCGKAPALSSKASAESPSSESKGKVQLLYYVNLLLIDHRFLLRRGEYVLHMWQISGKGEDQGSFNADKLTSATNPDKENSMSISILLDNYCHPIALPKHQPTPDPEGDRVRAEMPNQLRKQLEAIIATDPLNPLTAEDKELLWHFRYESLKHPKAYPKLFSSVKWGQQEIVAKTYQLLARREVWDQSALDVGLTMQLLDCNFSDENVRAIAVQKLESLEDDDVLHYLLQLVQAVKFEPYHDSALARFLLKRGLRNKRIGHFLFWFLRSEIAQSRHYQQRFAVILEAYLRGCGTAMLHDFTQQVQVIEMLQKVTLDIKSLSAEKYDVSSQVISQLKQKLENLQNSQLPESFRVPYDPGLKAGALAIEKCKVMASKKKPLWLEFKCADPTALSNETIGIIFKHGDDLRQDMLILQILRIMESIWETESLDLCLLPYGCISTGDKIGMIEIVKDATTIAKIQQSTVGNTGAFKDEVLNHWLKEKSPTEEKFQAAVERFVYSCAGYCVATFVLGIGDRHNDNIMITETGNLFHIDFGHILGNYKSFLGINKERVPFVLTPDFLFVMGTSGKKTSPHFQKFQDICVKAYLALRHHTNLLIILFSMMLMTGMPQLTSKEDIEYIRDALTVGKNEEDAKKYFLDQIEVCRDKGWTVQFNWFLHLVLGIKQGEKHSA
Sequence of UniProt P22607 (whole entry, unmodified, looked up): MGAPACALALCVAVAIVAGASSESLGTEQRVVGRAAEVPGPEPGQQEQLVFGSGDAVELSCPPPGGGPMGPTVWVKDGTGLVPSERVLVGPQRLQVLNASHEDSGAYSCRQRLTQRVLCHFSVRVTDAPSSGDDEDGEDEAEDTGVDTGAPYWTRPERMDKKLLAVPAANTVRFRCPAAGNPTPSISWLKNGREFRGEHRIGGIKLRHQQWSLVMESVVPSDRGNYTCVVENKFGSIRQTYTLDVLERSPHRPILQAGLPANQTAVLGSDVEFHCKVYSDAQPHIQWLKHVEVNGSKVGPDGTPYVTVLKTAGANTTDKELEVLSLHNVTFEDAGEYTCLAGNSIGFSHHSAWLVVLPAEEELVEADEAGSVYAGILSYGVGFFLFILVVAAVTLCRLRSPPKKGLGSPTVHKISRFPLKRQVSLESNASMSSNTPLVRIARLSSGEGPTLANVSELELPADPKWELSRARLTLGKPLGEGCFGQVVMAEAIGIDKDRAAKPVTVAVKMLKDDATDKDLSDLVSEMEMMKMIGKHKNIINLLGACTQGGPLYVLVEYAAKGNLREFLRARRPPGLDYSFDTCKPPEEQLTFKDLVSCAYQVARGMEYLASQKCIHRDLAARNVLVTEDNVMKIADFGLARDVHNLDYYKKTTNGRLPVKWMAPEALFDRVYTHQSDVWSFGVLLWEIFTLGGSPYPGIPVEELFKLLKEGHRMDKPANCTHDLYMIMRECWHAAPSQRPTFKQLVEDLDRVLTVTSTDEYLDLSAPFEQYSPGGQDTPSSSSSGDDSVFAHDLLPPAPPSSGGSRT
Sequence of UniProt O95819 (whole entry, looked up): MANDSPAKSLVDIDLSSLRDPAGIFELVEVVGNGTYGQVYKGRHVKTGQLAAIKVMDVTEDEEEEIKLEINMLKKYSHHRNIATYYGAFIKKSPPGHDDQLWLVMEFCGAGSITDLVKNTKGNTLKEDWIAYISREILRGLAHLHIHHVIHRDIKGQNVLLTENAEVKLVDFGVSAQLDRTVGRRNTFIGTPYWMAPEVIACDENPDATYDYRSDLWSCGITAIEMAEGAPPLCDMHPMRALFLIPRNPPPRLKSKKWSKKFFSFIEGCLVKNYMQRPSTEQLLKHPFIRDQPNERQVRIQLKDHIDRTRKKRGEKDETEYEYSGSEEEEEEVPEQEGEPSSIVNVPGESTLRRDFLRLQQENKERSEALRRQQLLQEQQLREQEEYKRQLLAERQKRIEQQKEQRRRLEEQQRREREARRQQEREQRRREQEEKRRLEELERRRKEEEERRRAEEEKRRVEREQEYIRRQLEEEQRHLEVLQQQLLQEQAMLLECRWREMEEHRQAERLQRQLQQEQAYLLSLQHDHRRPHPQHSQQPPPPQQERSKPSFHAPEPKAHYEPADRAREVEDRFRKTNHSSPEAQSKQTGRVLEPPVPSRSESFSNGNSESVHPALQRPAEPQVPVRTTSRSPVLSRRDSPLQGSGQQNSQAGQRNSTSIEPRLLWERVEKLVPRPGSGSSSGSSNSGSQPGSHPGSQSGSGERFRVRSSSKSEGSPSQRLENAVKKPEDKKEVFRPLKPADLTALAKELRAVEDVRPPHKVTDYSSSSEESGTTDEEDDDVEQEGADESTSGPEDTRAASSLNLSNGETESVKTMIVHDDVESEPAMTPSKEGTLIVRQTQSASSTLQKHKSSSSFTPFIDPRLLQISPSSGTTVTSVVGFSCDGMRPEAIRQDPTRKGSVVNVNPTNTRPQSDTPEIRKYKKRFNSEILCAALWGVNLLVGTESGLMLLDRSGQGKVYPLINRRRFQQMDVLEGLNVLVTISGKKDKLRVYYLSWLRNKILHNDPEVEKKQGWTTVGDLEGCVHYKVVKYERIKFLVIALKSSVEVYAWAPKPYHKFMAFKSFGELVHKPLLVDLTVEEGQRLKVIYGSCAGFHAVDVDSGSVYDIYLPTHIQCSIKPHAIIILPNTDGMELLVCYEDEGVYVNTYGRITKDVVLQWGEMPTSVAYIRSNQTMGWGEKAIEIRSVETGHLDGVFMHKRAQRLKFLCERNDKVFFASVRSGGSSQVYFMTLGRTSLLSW

Series 1
Target: TAR DNA-binding protein 43, full length, His tag (TARDBP, Homo sapiens, UniProt Q13148, residues 1-414)
Technique: RNA Bind-n-Seq
Molecule type: RNA
Matrix: in vitro
Tested at: 20 nM
Notes: 6-mer, flanks averaged, single round
Added: 150 mM LiCl
Baseline: input library
Direction: higher = stronger binding
`AGCACC` — result for “6-mer enrichment (R)”: 0.928.
For `UCCAAU`, “6-mer enrichment (R)” read 0.896.
`AUGAGU`: “6-mer enrichment (R)” 1.19.
`CUGGCA` — result for “6-mer enrichment (R)”: 0.909.
`CGAUUA`: “6-mer enrichment (R)” 0.818.
`GAUUCC`: “6-mer enrichment (R)” 0.872.
For `AAGUAG`, “6-mer enrichment (R)” read 0.966.
Under “6-mer enrichment (R)”, `CUUUGA` is recorded as 0.945.

Series 2
Target: Serine/threonine-protein kinase 10 (STK10, Homo sapiens, UniProt O94804)
Sequence of UniProt O94804 (whole entry, looked up): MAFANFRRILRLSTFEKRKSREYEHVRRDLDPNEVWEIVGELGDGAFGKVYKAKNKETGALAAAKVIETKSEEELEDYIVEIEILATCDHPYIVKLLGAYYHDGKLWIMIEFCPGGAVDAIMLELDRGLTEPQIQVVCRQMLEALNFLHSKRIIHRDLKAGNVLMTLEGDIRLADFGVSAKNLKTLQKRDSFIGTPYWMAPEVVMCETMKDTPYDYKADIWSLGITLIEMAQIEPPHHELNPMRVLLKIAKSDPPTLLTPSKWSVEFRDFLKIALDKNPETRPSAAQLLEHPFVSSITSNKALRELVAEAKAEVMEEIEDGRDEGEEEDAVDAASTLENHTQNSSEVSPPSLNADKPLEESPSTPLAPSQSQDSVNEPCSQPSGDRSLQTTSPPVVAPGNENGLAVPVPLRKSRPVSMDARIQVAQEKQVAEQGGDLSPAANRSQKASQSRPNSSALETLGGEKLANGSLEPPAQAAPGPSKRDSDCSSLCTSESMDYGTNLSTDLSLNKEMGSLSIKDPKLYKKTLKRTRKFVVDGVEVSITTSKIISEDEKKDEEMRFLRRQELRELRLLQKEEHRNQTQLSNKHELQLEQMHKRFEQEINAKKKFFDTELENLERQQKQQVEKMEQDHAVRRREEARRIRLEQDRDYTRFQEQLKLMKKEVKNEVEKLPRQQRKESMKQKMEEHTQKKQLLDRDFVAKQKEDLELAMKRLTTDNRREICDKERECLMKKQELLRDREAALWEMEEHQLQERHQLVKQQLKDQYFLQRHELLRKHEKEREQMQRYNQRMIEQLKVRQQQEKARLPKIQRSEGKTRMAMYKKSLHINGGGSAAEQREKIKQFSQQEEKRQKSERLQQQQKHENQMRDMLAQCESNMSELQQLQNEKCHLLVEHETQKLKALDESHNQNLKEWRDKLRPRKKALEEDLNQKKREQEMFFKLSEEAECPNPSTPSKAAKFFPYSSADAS
Observed: enzyme activity
Mode: inhibitor
Tested at: 0.5 µM
Baseline: control
`CNc1cc2c(Nc3cccc(Br)c3)ncnc2cn1` has a remaining activity of 31.8%.
`CC(C)n1cnc2c(Nc3cccc(Cl)c3)nc(NCCO)nc21` has a remaining activity of 86.9%.
`C[C@@H](N)[C@H]1CC[C@H](C(=O)Nc2ccncc2)CC1` has a remaining activity of 88.9%.

Series 3
Structure (SMILES): Nc1c(C(=O)NCc2ccc(C(=O)NCCCC3CCCCC3)cc2)cnn1-c1ccccc1
Technique: competition with immobilised ligand
For PIK3CG (Homo sapiens, UniProt P48736); cell-free assay; 0.1 µM: remaining binding read 100%.
Ribosomal protein S6 kinase alpha-2, C-terminal kinase domain (RPS6KA2, Homo sapiens, UniProt Q15349); cell-free assay; 0.1 µM — remaining binding: 90%.
It gave 100% for remaining binding (PIP4K2C (Homo sapiens, UniProt Q8TBX8); cell-free assay; 0.1 µM).
It gave 100% for remaining binding (EIF2AK1 (Homo sapiens, UniProt Q9BQI3); cell-free assay; 0.1 µM).
It gave 87% for remaining binding (FGFR3 (Homo sapiens, UniProt P22607, G697C); cell-free assay; 0.1 µM).
It gave 44% for remaining binding (ERBB3 (Homo sapiens, UniProt P21860); binding; 1 µM).
STK35 (Homo sapiens, UniProt Q8TDR2); cell-free assay; 0.1 µM — remaining binding: 100%.
It gave 97% for remaining binding (MUSK (Homo sapiens, UniProt O15146); cell-free assay; 0.1 µM).
It gave 98% for remaining binding (RET (Homo sapiens, UniProt P07949, V804M); cell-free assay; 0.1 µM).
The remaining binding was 100% (IKBKB (Homo sapiens, UniProt O14920); cell-free assay; 0.1 µM).
For CDK3 (Homo sapiens, UniProt Q00526); cell-free assay; 0.1 µM: remaining binding read 100%.
The remaining binding was 99% (EGFR (Homo sapiens, UniProt P00533); cell-free assay; 0.1 µM).
MAP4K4 (Homo sapiens, UniProt O95819); cell-free assay; 0.1 µM — remaining binding: 87%.
The remaining binding was 96% (CDK8 (Homo sapiens, UniProt P49336); cell-free assay; 0.1 µM).
Macrophage colony-stimulating factor 1 receptor, autoinhibited (CSF1R, Homo sapiens, UniProt P07333); cell-free assay; 0.1 µM — remaining binding: 100%.
The remaining binding was 100% (CDKL5 (Homo sapiens, UniProt O76039); cell-free assay; 0.1 µM).
The remaining binding was 100% (STK32B (Homo sapiens, UniProt Q9NY57); cell-free assay; 0.1 µM).
It gave 100% for remaining binding (EPHB6 (Homo sapiens, UniProt O15197); cell-free assay; 0.1 µM).
It gave 100% for remaining binding (ANKK1 (Homo sapiens, UniProt Q8NFD2); cell-free assay; 0.1 µM).

Series 4
Target: RING finger protein unkempt homolog, zinc fingers 1-6, GST-SBP tag (UNK, Homo sapiens, UniProt Q9C0B0, residues 30-357)
Sequence of UniProt Q9C0B0 (30-357, looked up): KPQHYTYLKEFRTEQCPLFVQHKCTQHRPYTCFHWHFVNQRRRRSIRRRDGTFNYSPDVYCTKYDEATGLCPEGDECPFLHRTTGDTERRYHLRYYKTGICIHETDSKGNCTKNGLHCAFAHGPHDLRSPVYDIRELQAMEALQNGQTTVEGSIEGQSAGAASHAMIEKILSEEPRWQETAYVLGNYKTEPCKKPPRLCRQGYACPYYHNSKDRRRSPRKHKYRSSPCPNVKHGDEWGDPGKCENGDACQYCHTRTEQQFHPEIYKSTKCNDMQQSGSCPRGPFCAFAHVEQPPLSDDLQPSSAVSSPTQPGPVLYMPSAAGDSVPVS
Technique: RNA Bind-n-Seq
Molecule type: RNA
Matrix: in vitro
Tested at: not given
Notes: RNA with constant flanks, human and mouse sites, ends assumed
Baseline: input RNA pool
Direction: higher = stronger binding
For `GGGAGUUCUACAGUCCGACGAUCUCUAUCAUUGUCUUCAACCUGGUGGAACUGGAAGGUGAUUAUCGAGAUGAUCAUAUCUUUUCCCUUUACUUCAUGAUACCAUUUUUCUUUACCACCUUGGGACUGCUUUACCACAACUGGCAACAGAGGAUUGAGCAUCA`, the bound/input enrichment was 0.151 ratio.
`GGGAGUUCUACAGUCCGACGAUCGGAGAAAAUUUUGCCUAUGUUCAAAUUAAGACAAUUUGGUCGACUAUGCUUCGUUUAUAUGAAUUUGACCUCAUCAAUGGAUAUUUUCCCACUGUGAAUUAUACAACAAUGAUCCACACCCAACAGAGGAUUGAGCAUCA` gave a bound/input enrichment of 0.191 ratio.
For `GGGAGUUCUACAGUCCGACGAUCAGAGACUGGGUCACAAACCCUGGGCUUUUCAAUCAGCCACUGACUUCCCUUCCUGUCAGUAGCAUACCCAUCUAUAAAUUACCAGAGGGAUCACCAACAUGGCUGGGAAUAUCCUGCAGUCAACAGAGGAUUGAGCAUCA`, the bound/input enrichment was 0.436 ratio.
`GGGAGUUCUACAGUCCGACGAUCUACCUUGAAAGAAGAAAAGGUUCUUACUGCUUGGUCCUUGAUUUAUCACACAAAGCAGAAUAGUAUUUUUAUAUUUAAAUGUAAAGACAAAAAACUAUAUGUAUGGUUUUGUGGAUUAUGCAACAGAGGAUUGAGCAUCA` has a bound/input enrichment of 1.76 ratio.
`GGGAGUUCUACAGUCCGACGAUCAGUCUCAAUGGAGGCUAUCAAGAUGAGUUGGUAGACCACCGUUUGACAGAAAGGGAGUGGGCUGAUGAAUGGAAACACCUUGACCAUGCACUGAAUUGCAUUAUGGAAAUGGUAGAGAAACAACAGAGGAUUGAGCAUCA` gave a bound/input enrichment of 0.15 ratio.
The bound/input enrichment of `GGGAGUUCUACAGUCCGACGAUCCCUCUUGAUAACUGCCGAGGGUUACAUCCACUAGACUCACUGAGCCCACUUUGCUUUAUUAUACAGGCAUGUGGAAAUAUCCAUGAAUGUGAAUAUUGCCUGAGUUCAGUCUUAGUAUCUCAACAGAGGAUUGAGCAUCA` is reported as 0.15 ratio.
The bound/input enrichment of `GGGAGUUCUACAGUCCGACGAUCCGGACUCCCGCGGCGGGAGGAGCCUGUUCCCCUGAGGGUAUUUGAAGUAUACCAUACAACUGUUUUGAAAAUCCAGCGUGGACAAUGGCUACUCAAGCUGAUUUGAUGGAGUUGGACAUGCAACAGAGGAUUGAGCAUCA` is reported as 0.131 ratio.
The bound/input enrichment of `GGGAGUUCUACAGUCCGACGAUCUGGCAUAAACUCUCUGCUGACAACAUGGACCCAGACUUUGUGGAGAGACGACGCGUGGGCUUAGAAAACUUCCUCUUGAGGGUUGCUUCACAUCCUGUCCUUUGUAGAGACAAAAUCUUCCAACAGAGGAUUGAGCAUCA` is reported as 0.225 ratio.

Excerpt of the above (series 3):
It gave 100% for remaining binding (ANKK1 (Homo sapiens, UniProt Q8NFD2); cell-free assay; 0.1 µM).
MAP4K4 (Homo sapiens, UniProt O95819); cell-free assay; 0.1 µM — remaining binding: 87%.
The remaining binding was 100% (STK32B (Homo sapiens, UniProt Q9NY57); cell-free assay; 0.1 µM).
It gave 44% for remaining binding (ERBB3 (Homo sapiens, UniProt P21860); binding; 1 µM).
